Experimental data from different studies.
Numbered parts are unrelated; each lists some results of a single study. Substitutions count along the parent as printed.

Set 1 — method: protein binding microarray; molecule type: double-stranded DNA, one strand shown; medium: in vitro; tested at: not given; reference: not given; direction: higher = stronger binding; endpoint: E-score
Target: Histone acetyltransferase KAT6A, winged helix 2, GST fusion (KAT6A, Homo sapiens, UniProt Q92794, residues 85-181)
Setting: 8-mer, flanks averaged, mean of 2 arrays, mostly near background
Construct (chain): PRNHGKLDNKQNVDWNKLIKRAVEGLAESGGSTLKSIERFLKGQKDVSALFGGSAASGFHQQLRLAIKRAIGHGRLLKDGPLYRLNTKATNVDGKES
AGCACGTC: -0.0891
AGTCGTCC: -0.176
CCGCGCCA: 0.169
GCGACAAC: 0.161
GGCCGCAA: 0.148
TGATATCA: 0.015
AGGATATA: 0.0145
AACTTGAA: 0.0804

Set 2 — method: RNAcompete; molecule type: RNA; medium: in vitro; tested at: 20 nM; setting: 7-mer, probes averaged, single round; reference: mean of 7-mers; direction: higher = stronger binding; endpoint: 7-mer Z-score
Target: PABPC1L2, full length, GST fusion (mouse, UniProt A0ABA7IW68)
Residues (chain): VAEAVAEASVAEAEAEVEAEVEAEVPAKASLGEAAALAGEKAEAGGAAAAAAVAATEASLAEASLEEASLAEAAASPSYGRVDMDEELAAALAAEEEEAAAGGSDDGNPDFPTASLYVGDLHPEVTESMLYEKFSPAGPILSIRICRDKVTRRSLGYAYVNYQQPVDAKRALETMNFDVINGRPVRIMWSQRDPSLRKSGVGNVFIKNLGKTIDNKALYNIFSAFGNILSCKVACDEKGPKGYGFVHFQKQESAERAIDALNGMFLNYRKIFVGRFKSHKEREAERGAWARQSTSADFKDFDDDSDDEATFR
AUGCGCU: -0.0917
AUUAGUU: -0.278
UAAUUCU: -0.184
CGAUUGG: -0.0699
ACGGAAC: 0.213
GAGCGAA: 0.294
AAAUAUA: 1.76
GGGUAGG: 0.227

Set 3 — method: RNA Bind-n-Seq; molecule type: RNA; medium: in vitro; tested at: 365 nM; reference: no-protein control; direction: higher = stronger binding; endpoint: RBNS enrichment (R)
Target: RNA binding protein fox-1 homolog 2, RRM domain, GST-SBP tag (RBFOX2, Homo sapiens, UniProt O43251-10, residues 100-194)
Setting: natural RNA segment, single round, ends assumed
Shared flanks, not repeated: GGGAGUUCUACAGUCCGACGAUC … UGGAAUUCUCGGGUGCCAA
Target sequence (chain): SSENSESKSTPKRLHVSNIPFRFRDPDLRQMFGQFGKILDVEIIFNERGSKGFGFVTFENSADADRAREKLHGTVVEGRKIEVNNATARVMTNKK
CUCUGAAGCCUUUAAACUCUGAAGAGAAUUGUUUCAGAGUUAUUCCAAGCACUUGUGCAACUUGGAAAAACAGACUUGGGUUGUGGGAACAGUUGACAGCGUUCUGAAAA: 0.96
CCACGACUAUGGUGGGAAAAACCAUUUUUUAAAGGACACAUACGAUGGUGUAUCUCUCUGUGUAAUGGUGAGCCAUGCUGCAAGGUUGUAGCCUUGGCCCGAAGACAGAA: 0.225
UUCAACGUUAUUUACAUGUAAAUAGACAAAAGGAAACAUUUGCCAAAAGCGGCAGAUCUUUACUGAAAGAGAGAGCAGCUGUUAUGCAACAUAUAGAAAAAUGUAUAGAU: 0.36
CGGGGGAUGGAAAGGAAGAUAAAUGUUAUUUGUUCACUUUUGUAAGACUCUGUUCUGGGUGUGGGCCAGGAGGUCUUAGAAAGAAGCUGGCUGUCAGUGACCAUGUGGGC: 1.7
UUGGCCUCCUGCCUGCUGUCAUGUGUCCCCCCUUUUGCUCCCCCUCCCCAUCCUGAUGCUUUCAUGUUGGUUCCUGACACAUGGUCUGGCUUUGGGUUUGAAGGGCAAGG: 2.51
AUUUCCUCUCCAGUACCCAUUUCCAAAGAGAAAGAGUGAAGUACUUUGAAGUCUGUACUUGAAAUCUGUCUGGAAGUGUUUCCUUGUUAGUUUUGGGUUUCUCCCCUGUC: 0.434
GCUACUACUAUGUUAUGAGAGUCAAAAAUAACUCCUUGUGUUUGCUUAAUUUAUUGUUUAACACCCCCUAACUGCCGAAACCAAAGUGAUACGGAGUCGUCUUGUCUGCA: 12.7
UUGGGGUGCCUUCAUUUGCAUGCGUGUGCCCUGACCCCAAGAACCCCCAAAUUACUCACAAAUUAAUGAGAGAUGUGAUCCAAACAGGAUUUUCGUCCCUGCCCCAUCCC: 8.97

Other studies, line by line — parent: viral docking peptide; CKVKRKLFGSENI
K4A — normalised enrichment score (CCNE2, cyclin fold, Cln2 fusion (human); yeast growth competition, sequencing; yeast; strong parent motif; reference: not given, higher = stronger binding): 1.9

A few entries again (set 1):
AGCACGTC: -0.0891
AGTCGTCC: -0.176
CCGCGCCA: 0.169
GCGACAAC: 0.161
